Experimental data collected from several papers.
Protocols differ between the studies behind these lines. ± gives the spread as reported.

SMILES | test | test system | setting | scale | quantity | result
N#C[C@@]1(c2ccc3c(N)ncnn23)O[C@H](CO)[C@@H](O)[C@H]1O |  | monkey plasma | 1 µM |  | fraction unbound | 0.829
CNCc1cc(-c2ccccc2F)n(S(=O)(=O)c2cccnc2)c1 |  | human plasma |  |  | fraction unbound in plasma | 0.135
Cn1cc(-c2ccc(S(=O)(=O)[C@@H]3C[C@@H](C(=O)NC4(C#N)CC4)N(C(=O)C4(C(F)(F)F)CC4)C3)c(C(F)(F)F)c2)cn1 |  | FeSSIF | 0.08 mg/mL, up to 60 min, 37 °C |  | fraction dissolved | < 0.4
CCCC1O[C@@H]2C[C@H]3[C@@H]4CCC5=CC(=O)C=C[C@]5(C)[C@H]4[C@@H](O)C[C@]3(C)[C@]2(C(=O)CO)O1 (stereo partly drawn) |  | human hepatocytes |  |  | fraction unbound in incubation | 0.5
C[C@H]1CN(C(=O)CC#N)[C@]12CCN(c1ncnc3[nH]ccc13)C2 |  | healthy Japanese men, urine | oral, 50 mg, single dose | reference: dose | fraction excreted unchanged | 74.9%
CN(C)C1(CNC(=O)c2ccc3c(c2)CCN3C(=O)c2ccccc2)CCOCC1 | equilibrium dialysis | mouse brain homogenate | pH 7.4 |  | fraction bound | 55.7%
Cl.N=C(CC(O)c1cc2c(F)cc(F)cc2c2cc(C(F)(F)F)ccc12)Nc1ccc(Br)cc1 (stereo not drawn) | equilibrium dialysis | human liver microsomes 0.5 mg/mL | 1 µM, 24 h |  | fraction bound | 0.993
C=C1C[C@@H]2[C@H](CC[C@]3(C)C(=O)CC[C@@H]23)[C@@]2(C)C=CC(=O)C=C12 |  | postmenopausal women, serum | oral, 25 mg daily, 1 year, UGT2B17 and GSTA1 genotypes |  | fraction of total metabolites | 0.19 ± 0.1
CN(C(=O)C(C)(C)c1cc(C(F)(F)F)cc(C(F)(F)F)c1)c1cnc(N2C[C@H]3COCCN3C[C@H]2CO)cc1-c1ccc(F)cc1[14CH3] |  | human liver microsomes |  |  | fraction unbound in microsomes | 0.519
